Published values gathered from unrelated publications.
Numbered parts are unrelated; each lists some results of a single study. Positions count from the first letter of the parent shown.

Study 1 — target: CCNB3, cyclin fold, Cln2 fusion (human); technique: yeast growth competition, sequencing; sample: yeast; notes: weak parent motif; baseline: not given; reading: higher = stronger binding
Parent: REV3L docking peptide (human); PPVIIKYIIINRF
Substitution | normalised enrichment score
K6A | 0.131
I5A | 0.0946
I8A | 0.248
P2A | 0.186
I4A | 0.056
R12A | 0.467
I10A | 0.592

Study 2 — technique: protein binding microarray; form: double-stranded DNA, one strand shown; sample: in vitro; tested at: not given; baseline: not given; reading: higher = stronger binding
Target: Histone acetyltransferase KAT6A, winged helix 1, GST fusion (KAT6A, Homo sapiens, UniProt Q92794, residues 1-85)
Notes: 8-mer, flanks averaged, mean of 2 arrays, mostly near background
Residues (chain): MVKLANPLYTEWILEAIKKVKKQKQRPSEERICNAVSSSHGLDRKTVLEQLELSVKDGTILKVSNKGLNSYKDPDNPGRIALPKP
Oligonucleotide | E-score
ACTAATGG | -0.258
ACGCTAAT | 0.192
AACCTCCA | -0.111
CAACTCAG | -0.175
CTGCTCCA | -0.178
AGAACCGA | -0.0529
AAGTGTGC | -0.0785
CTCCATCA | -0.148
GGATGGCA | 0.039
TGAGTCAA | -0.16
GCCGGAAA | 0.239
AACTAACT | -0.136
CACTTACA | -0.143
CACCGTTA | 0.0287
CCTATGTC | -0.226
AAGACCAC | -0.182
ATTACTGG | -0.158
TAGATTAA | -0.0114
TGAGCTAA | -0.0803
TTAGAAAA | -0.226

Study 3 — technique: DHFR PCA, dose-response; sample: yeast; notes: Hill fit, mean, not affinity; with: (+)-ABA, dose series; reading: lower = more sensitive
Target: ABI1, truncated, D143A, DHFR fusion (Arabidopsis thaliana, UniProt P49597)
Parent: PYL1, truncated, DHFR fusion (Arabidopsis thaliana, UniProt Q8VZS8); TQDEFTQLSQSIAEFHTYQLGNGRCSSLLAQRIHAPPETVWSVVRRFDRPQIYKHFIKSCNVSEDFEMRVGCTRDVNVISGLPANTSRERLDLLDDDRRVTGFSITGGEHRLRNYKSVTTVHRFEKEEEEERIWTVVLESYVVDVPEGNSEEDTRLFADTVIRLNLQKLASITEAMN
Substitution | ABA EC50 [µM]
F15I | 39.2
V78T | 26.6
T86C | 2.26
T120E | 532
F15Q | 55.5
R132A | 1.07
E38D | 2.37
R88Q | 1.8
L8K | 67
G21C | 3.21
T1N | 2.36
E152I | 8.42
T173H | 135
R132W | 10.3
E139Y | 1.92
N114Y | 237
L164V | 0.961
R88V | 1.74
C72V | 2.65
R90W | 497
P36E | 4.23
D3N | 5.39
E152H | 3.64
A175H | 1.86
R111C | 63

Study 4 — target: CEP164, C-terminal peptide (human); technique: DHFR complementation, deep sequencing; sample: yeast; baseline: wild type; reading: higher = weaker binding
Notes: single substitutions, model-inferred values
Parent: PDZK1, PDZ domain 2 (human); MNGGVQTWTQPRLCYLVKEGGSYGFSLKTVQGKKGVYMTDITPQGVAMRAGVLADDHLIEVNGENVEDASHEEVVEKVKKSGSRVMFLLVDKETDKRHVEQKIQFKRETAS; partner HNRVKVYRF
Substitution | binding free energy change
I103R | -0.147 kcal/mol
G51W | 0.487 kcal/mol
F105G | -0.251 kcal/mol
G32M | 0.703 kcal/mol
E60C | 0.0989 kcal/mol
Q31L | -0.124 kcal/mol
M1R | -0.145 kcal/mol
T94A | -0.11 kcal/mol
F105N | -0.162 kcal/mol
G51P | 1.83 kcal/mol
G35E | 0.336 kcal/mol
L88F | 0.0797 kcal/mol
K92Y | 0.0329 kcal/mol
E73I | 0.0595 kcal/mol
T39H | -0.122 kcal/mol
G51E | 1.53 kcal/mol
G35W | 0.0842 kcal/mol
V99K | -0.238 kcal/mol
V90H | -0.158 kcal/mol
K34I | 0.188 kcal/mol
E76G | 0.13 kcal/mol
W8A | -0.16 kcal/mol
T9F | 0.0701 kcal/mol
Q6P | -0.212 kcal/mol
P11R | 0.429 kcal/mol

Study 5 — technique: aptamer microarray, sandwich; form: DNA with 2'F-ANA; sample: in vitro; tested at: 200 nM; with: Cy3 exosite-II aptamer, 400 nM; reading: higher = stronger binding; oligonucleotide: GGTTGGTGTGGTTGG
Target: Prothrombin, mature alpha-thrombin (F2, Homo sapiens, UniProt P00734)
Notes: whole 15-mer aptamer, many near background
Modification | mean fluorescence intensity
2'F-ANA at 1 2 3 5 7 8 10 11 15 | 58.2 a.u.
2'F-ANA at 1 2 3 4 5 6 7 9 11 13 14 | 49.6 a.u.
2'F-ANA at 2 3 9 10 11 13 | 339 a.u.
2'F-ANA at 1 2 3 5 6 7 11 12 14 | 45.6 a.u.
2'F-ANA at 1 3 6 8 9 10 11 13 15 | 191 a.u.
2'F-ANA at 2 3 5 8 9 10 11 13 14 | 46.2 a.u.
2'F-ANA at 2 4 5 6 7 8 9 13 | 59.7 a.u.
2'F-ANA at 2 6 7 8 9 10 12 | 177 a.u.
2'F-ANA at 1 4 5 8 9 10 14 15 | 72.2 a.u.
2'F-ANA at 2 4 5 8 10 11 13 14 | 40.7 a.u.
2'F-ANA at 1 4 7 11 14 | 52.8 a.u.
2'F-ANA at 7 8 9 11 12 | 742 a.u.
2'F-ANA at 2 7 8 11 12 14 | 207 a.u.
2'F-ANA at 7 8 10 11 12 15 | 192 a.u.
2'F-ANA at 1 2 5 6 8 10 12 14 15 | 54 a.u.
2'F-ANA at 1 2 4 13 14 | 48.2 a.u.
2'F-ANA at 1 6 8 9 11 14 15 | 56.7 a.u.
2'F-ANA at 1 2 4 8 11 12 14 | 61.1 a.u.

Study 6 — technique: universal PBM; form: double-stranded DNA, one strand shown; sample: in vitro; tested at: 600 nM; reading: higher = stronger binding
Target: Sal-like protein 4, full length isoform A (SALL4, Homo sapiens, UniProt Q9UJQ4, residues 1-1053)
UniProt Q9UJQ4, sequence (whole entry, looked up): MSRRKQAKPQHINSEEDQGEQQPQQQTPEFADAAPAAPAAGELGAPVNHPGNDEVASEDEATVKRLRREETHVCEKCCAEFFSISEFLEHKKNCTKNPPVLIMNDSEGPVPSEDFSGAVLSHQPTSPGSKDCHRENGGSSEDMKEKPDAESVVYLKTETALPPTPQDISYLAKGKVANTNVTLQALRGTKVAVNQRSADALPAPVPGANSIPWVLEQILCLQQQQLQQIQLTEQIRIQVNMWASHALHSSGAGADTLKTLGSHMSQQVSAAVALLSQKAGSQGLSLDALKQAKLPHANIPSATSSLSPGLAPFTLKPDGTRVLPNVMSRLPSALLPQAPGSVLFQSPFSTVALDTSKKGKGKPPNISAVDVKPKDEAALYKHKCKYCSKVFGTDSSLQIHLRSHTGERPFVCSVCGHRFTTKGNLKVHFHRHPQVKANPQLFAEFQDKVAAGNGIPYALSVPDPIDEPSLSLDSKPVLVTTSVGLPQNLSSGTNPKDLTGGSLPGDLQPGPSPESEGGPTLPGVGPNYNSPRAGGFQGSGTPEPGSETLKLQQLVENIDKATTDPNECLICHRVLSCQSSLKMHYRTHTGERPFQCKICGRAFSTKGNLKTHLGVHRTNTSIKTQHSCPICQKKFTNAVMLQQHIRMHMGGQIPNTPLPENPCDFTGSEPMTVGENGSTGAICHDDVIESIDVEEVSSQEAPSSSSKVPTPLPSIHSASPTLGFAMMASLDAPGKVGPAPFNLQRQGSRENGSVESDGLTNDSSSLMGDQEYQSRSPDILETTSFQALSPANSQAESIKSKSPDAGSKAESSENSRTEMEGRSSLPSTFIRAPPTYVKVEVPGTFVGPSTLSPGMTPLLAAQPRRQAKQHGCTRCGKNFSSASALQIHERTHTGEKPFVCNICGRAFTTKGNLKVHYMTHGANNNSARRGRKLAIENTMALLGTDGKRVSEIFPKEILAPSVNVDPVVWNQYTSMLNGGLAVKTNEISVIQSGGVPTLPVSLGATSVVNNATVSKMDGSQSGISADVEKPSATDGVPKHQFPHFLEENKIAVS
Notes: 8-mer, flanks averaged, mean of replicates
Oligonucleotide | E-score
ACGCACCC | -0.301
AAAGATCA | 0.0875
GCACCTGC | -0.219
ACTATTCA | 0.224
CGCTCCCC | -0.392
CGGAATGA | -0.0408
CGCGGCCG | -0.429
ACTAGCGG | -0.177
GGCCCGCA | -0.28
CAGTTAAA | 0.182
CTAAAACC | -0.0178
TAGGCACA | -0.0424
AACAAAAC | 0.181
CACGAGTG | -0.182
GAAGAGGC | -0.0313
ATCCGCCA | -0.158
CGATCGAG | -0.161
AGTTTAAC | 0.065

Study 7 — technique: RNA Bind-n-Seq; form: RNA; sample: in vitro; tested at: 365 nM; baseline: no-protein control; reading: higher = stronger binding
Target: RNA binding protein fox-1 homolog 2, RRM domain, GST-SBP tag (RBFOX2, Homo sapiens, UniProt O43251-10, residues 100-194)
Notes: natural RNA segment, single round, ends assumed
All sequences stand within: GGGAGUUCUACAGUCCGACGAUC … UGGAAUUCUCGGGUGCCAA
Residues (chain): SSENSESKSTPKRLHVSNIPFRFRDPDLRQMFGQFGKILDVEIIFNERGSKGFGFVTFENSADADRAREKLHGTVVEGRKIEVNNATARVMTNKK
Oligonucleotide | RBNS enrichment (R)
AUUUUUAAAGAUAACUCAGCAUGUUUGUAAAGCAGGAUACAUUUUACUAAAAGGUUCAUUGGUUCCAAUCACAGCUCAUAGGUAGAGCAAAGAAAGGGUGGAUGGAUUGA | 6.17
UUACCGGUGAGACUGGGCUUGGACUGUACAAGACUUGAGUCCUAGACCUGGGUGUAUUUGCACUUUGGGGCCCUGUUGCUAGCCAUCUUGUGAGUGCCAAUGUAUAAUGC | 1.01
CAGAGAACAAUCACUAUUCUUAAGCACUUUGAAGAUAUUUCUAUGUAAAUUAUUGUAAACUUUUUCAAUGGUUGGGACAAUGGCAAUAGGAUAAAACGGGUUACUAAGAU | 0.375
AGGGUCCCUUUUGCAUUGCCAAGUGCCAUAACCAUGAGCACUACUCUACCAUGGUUCUGCCUCCUGGCCAAGCAGGCUGGUUUGCAAGAAUGAAAUGAAUGAUUCUACAG | 0.846
ACUGGCUUUGCACAGAAGUAUGCUCUACUUGCGUUGCUUUAGGGCAGGAUUCUAUUUUGAGGGAAAAGACAGUAUCCUUAUUACCUUUUGUUUGUUUAAUAGCACAAAUG | 0.599
AUCACCCUGUCUCUUUACCACUAACCUGUGAGGUGUCGUCACCAGAGGACACCUGAGGCCUUGACACCUUCCAGGACUCUGGCAAUGGGAGUUUUGAUACUGGAUACCCA | 0.316
GCCACCUGUACCUCACGGCUGCUAUGCUUGCGUGUUUCCACUGACGAUGGGGCCUCUUUCUAAAGGCAGUUGCUGCAAAUUCCAGUUCUUCCAAAAGUCACUUGAUUUAA | 0.393
UUUCCUUAGAGAAAAUAAUUUUAUUCUGCUUUGUCCAAUUAAAUUAUUCCAAUGGCGGAUGGUAAUAUUCACCAUCUCUAAUUCAUUGGUCACUGGUAGGUAAGCAUGAG | 6.37
CAGAGAAUCAGGUAACAUUGCACAGCCUGCGUUCUCCUGCAGUGGUGGCACGCCUUGUGCUGACGACCCCCACUGGGCUACAGUCACAGGAGAAUUGAGACUUGGAAAAG | 0.324
UAAAUCAAGGAACAUCAGUUAAGAGAUUUCCUAAUUUAUUUUUUAACUGAAUAAAUAUCAGUUAAAAGAUUGCCAGCAUGGUUACAGGUAAACUGAUUUUCAGAAUUCAC | 7.16
AGGACCAGGCACGUCAGCUCUCUGAGCCUCCCCUUCCCUUGUUGUCACAAGGGAAUAGAAGCAGAAGAAGCUGAGAGCCUCCCUAUUCCCAGAUGCCCUGGUGGAAUGAC | 0.271
GGCCCGGGCGUGCACUAGGCGGGGCAAGAGGAAGCACGUCCCCAAGUUGAUUGUAGUUGUCCCGUCCUGUGGGCUGGCUCACUGUCCUGUGUCCUUUGCGUUCCUCGUUU | 0.948

Repeated from above (study 5):
Modification | mean fluorescence intensity
2'F-ANA at 1 2 3 5 6 7 11 12 14 | 45.6 a.u.
2'F-ANA at 1 3 6 8 9 10 11 13 15 | 191 a.u.
2'F-ANA at 2 3 5 8 9 10 11 13 14 | 46.2 a.u.
2'F-ANA at 2 4 5 6 7 8 9 13 | 59.7 a.u.
2'F-ANA at 2 6 7 8 9 10 12 | 177 a.u.
2'F-ANA at 1 4 5 8 9 10 14 15 | 72.2 a.u.
2'F-ANA at 2 4 5 8 10 11 13 14 | 40.7 a.u.
2'F-ANA at 1 4 7 11 14 | 52.8 a.u.
2'F-ANA at 7 8 9 11 12 | 742 a.u.
2'F-ANA at 2 7 8 11 12 14 | 207 a.u.
2'F-ANA at 7 8 10 11 12 15 | 192 a.u.
2'F-ANA at 1 2 5 6 8 10 12 14 15 | 54 a.u.
2'F-ANA at 1 2 4 13 14 | 48.2 a.u.
2'F-ANA at 1 6 8 9 11 14 15 | 56.7 a.u.
2'F-ANA at 1 2 4 8 11 12 14 | 61.1 a.u.
